Measured values collected from several papers.
Parts stem from different laboratories: compare values within a part only.

Study 1
Target: Fragile X messenger ribonucleoprotein 1, C-terminal low-complexity region (Fmr1, Mus musculus, UniProt P35922)
Technique: RNA Bind-n-Seq
Molecule type: RNA
Sample: in vitro
Tested at: 200 nM
Setting: whole 134-nt RNA, ends assumed
Added: 150 mM KCl
Relative to: input library
Reading: higher = stronger binding
Oligonucleotide	log2 enrichment
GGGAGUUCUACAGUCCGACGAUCCCAGAGCCAGAGAGCUUGGGCCCUGGGACGCCUGGGUUCCCCGAGCAGGAGGAAGACGAACUUCACCGCACCCUGGGCGUGGAGCGGUUUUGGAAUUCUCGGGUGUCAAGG	-0.898
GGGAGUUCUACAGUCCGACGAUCUCCUCAAGUCCUGUGCUACACAUCGUAUGUACCGAAUCGGGUGGUGGUGGGAAAGUAUUAUGUUACGCCGUUCGGAUCUGCACUUCCAGCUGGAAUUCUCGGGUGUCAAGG	0.249
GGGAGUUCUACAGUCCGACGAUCUUAAAGAAAUGUCCACAAGUAACUUUGAAUCAUCUCCUGAAGUAGAAGAAAGGCCUGCUGUGUCUUUGACUCUUGAUCAGAGCCAGUCACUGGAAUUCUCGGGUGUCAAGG	-0.773
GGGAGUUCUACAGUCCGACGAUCGUCCUGUGCUACACAUCGUAUGUACCGAAUCGGAAAAAAGGAAAAAAGGGAAAAAAGGAAAGUAUUAUGUUACGCCGUUCGGAUCUGCACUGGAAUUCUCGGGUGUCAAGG	-0.694
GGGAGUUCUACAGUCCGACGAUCGUCCUGUGCUACACAUCGUAUGUACCGAAUCGGGGAGGGGAAAAAGGGGUUUUUGGGGAAAGUAUUAUGUUACGCCGUUCGGAUCUGCACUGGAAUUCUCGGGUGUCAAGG	0.613
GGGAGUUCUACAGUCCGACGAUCUAACUUUAGAGGAGGAUCUGAUGGAUAUGGCAGUGGACGUGGAUUUGGGGAUGGCUUUAAUGGGUAUGGAGGAGGACCUGGAGGUGGCAAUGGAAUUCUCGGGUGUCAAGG	0.212
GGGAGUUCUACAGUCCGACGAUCCACAGACAACUCGCACCCACACAGACACAGAGGGAAGGGGUUGGGAUGGGGACAGGGUGCACAGCAGGGCGGGGUAGGACCCCAGCCCCUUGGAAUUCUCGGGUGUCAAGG	1.37
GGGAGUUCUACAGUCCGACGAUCGCAGGAAGUCAAAACAAAUGGAAAUGCUUCGGAUAGUGGCAGGGGUGGGGGUUGCUAAGGAAAGGGUGGGAUGGGAGUGGGUAAAGAGUUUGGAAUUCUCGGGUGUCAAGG	0.245
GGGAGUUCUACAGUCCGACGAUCCAAGUCCUGUGCUACACAUCGUAUGUACCGAAUCGGGUUUUGGUUUUGGUUUUGGAAAGUAUUAUGUUACGCCGUUCGGAUCUGCACUUCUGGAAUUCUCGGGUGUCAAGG	-0.675
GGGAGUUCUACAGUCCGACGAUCCCUGUGCUACACAUCGUAUGUACCGAAUCGGGGUUUUUGGGGAAAAAGGGGUUUUUGGGGAAAGUAUUAUGUUACGCCGUUCGGAUCUGCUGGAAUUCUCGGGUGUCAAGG	0.435

Study 2
Target: RNA binding protein fox-1 homolog 2, RRM domain, GST-SBP tag (RBFOX2, Homo sapiens, UniProt O43251-10, residues 100-194)
Technique: RNA Bind-n-Seq
Molecule type: RNA
Sample: in vitro
Tested at: 365 nM
Setting: natural RNA segment, single round, ends assumed
Relative to: no-protein control
Reading: higher = stronger binding
Target sequence (chain): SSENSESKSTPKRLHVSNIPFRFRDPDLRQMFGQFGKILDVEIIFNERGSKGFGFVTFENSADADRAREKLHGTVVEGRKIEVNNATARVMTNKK
Oligonucleotide	RBNS enrichment (R)
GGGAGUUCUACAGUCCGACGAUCAGAUGAAAUGCUCUUUGCAUUGUCUGAACCCUCUCUAAUUCUAUCAUGAUAACGCUACUGUGACGCUCUCACUGGGAAGCUGGGUGGCGAGAACUUUCUGGACGUCGAUGUGGAAUUCUCGGGUGCCAA	0.302
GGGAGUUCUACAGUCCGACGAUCGCACCUGGGACAACAGCACAGCUGAGCCGCAGACACGAAGACAUUUGUUAAGUUAUCAGCCACGUCUGCAUCACAGACUACAGGUACUACCAUUUAGCGGAGUUAUCUUUUGGAAUUCUCGGGUGCCAA	0.249
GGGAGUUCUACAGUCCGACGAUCUGAUUGAUUAGAAUUGUGCUCUUGAUGGCUGGGAAUUUAGAAAUUUUAUUUUAAGAGUUAUUUCAUUUUCAUCCUAAGAGUGAUGGGAGAGAAAUGUCCAAAAGAGAUCUUGGAAUUCUCGGGUGCCAA	0.415
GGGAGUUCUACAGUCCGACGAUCCUUUCCUCCCAAGUCCACUUUACCCUUUCUCACGCAUCCUGGUGGUCCCUUGGGUACCUGGCCCUAGCCCUGCUUUCUUUCAUCCUGGUGAUCUUAAUUGUGGAGGUGCAUGGAAUUCUCGGGUGCCAA	2
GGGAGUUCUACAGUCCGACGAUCCCUAGUUGUUGCAGAAUCCUUCCCCAGGAGCCCCUUCACUCCUGCUGGGGUAGUCACCAGCUUACUGUGGGUACAGGGCUCUUAGCUUGUAUGUGUUCUCCCUUCCUUGAUGGAAUUCUCGGGUGCCAA	0.453
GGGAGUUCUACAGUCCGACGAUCAGAUUUCUGAGUAAGAUCUGGCAAGUGAGGGAGCUUUUCUUGAGAGGGGAAGGCUACAUUUCUAUGGGUAUAGAAAUGGGAAUAUUUGCGAGCCUAUCUCAGAUGUACAUUGGAAUUCUCGGGUGCCAA	0.412
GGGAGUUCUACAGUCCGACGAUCUUGAGAAUCACUGUGGGCGUCCAUUCUUAUCAACUAAAUCUCCACAGGGUUUUUGUGCUGGUGUGGAUUAGUUUAACUCUUGUAUUCAACCGUUAGUGCUACCACCUUCUUGGAAUUCUCGGGUGCCAA	0.506
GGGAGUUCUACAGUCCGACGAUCAACAGCUUUCUGGGUAAUUCACCAAUUUCCUUUAAAACAUAAGCUACCUGAAUGGAGAAUACAUCUUGUUUCUGAGUUUCAACACUAGCAUUUUUGGCUUACUCAUGGACUGGAAUUCUCGGGUGCCAA	0.421
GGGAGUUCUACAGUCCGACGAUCUACCUAACAACAGCCAUUUCAGGCCCUCAAUAGUGCUUGCUUCAUCUUAGCCUGGCCCAGCCUGGGCUGCCUGGACAGGCUCUCCUGGCACAUUCCUGUACCCUUUAAAUUGGAAUUCUCGGGUGCCAA	0.515
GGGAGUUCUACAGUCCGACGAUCUGGGAGGAAGGAGAAUUUCCAUUAGGCAAGCUGUAUGCAGUGGAAUUUUCCUUUUAGGAGACACACAAUUAAGACUCUCUGGUUCUGUCCUUGCUUUGGAGACUUUAAGAUGGAAUUCUCGGGUGCCAA	0.732
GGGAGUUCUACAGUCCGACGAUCUAGAACAUAUCACAUUGCAACACCCUAAAUUGUUUUUAAUACAUUAGCAAUCUAUUGGGUCAACUGACAUCCAUUGUAUAUACUAGUUUCUUUCAUGCUAUUUUUAUUUUUGGAAUUCUCGGGUGCCAA	0.623
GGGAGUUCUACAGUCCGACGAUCCCUGGACCACCAUGGGGAGGAAGAGUCCCACUCAUUACAAAUAAAGAAAGGUGGUGUGAGCCUGGGAGUGGGUGUCUCCAGUUCCAUGUGGCCAAAUCCUAGGGCCUCAAUGGAAUUCUCGGGUGCCAA	0.572

Study 3
Target: Histone acetyltransferase KAT6A, winged helix 1, GST fusion (KAT6A, Homo sapiens, UniProt Q92794, residues 1-85)
Technique: protein binding microarray
Molecule type: double-stranded DNA, one strand shown
Sample: in vitro
Tested at: not given
Setting: 8-mer, flanks averaged, mean of 2 arrays, mostly near background
Relative to: not given
Reading: higher = stronger binding
Construct (chain): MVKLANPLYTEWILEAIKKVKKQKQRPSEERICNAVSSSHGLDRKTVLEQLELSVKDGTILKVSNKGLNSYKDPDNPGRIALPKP
Oligonucleotide	E-score
AAGGCCAT	-0.0376
ATGTAAAA	-0.0308
CCTACAGA	-0.128
CAGCAGCA	-0.154
AGATCAGG	-0.206
AAGATTCT	-0.187
GTTAAAGA	0.0378
AAGGGAGA	-0.229
AGGCTGAG	-0.0798
GATGGGGA	-0.165
CAGCCACA	-0.223
CTACATAA	-0.147
AAAAGACA	-0.117
ACAAAGAG	-0.207
CAATGTCA	-0.0544
GGTCCTTA	-0.0576

Study 4
Target: Prothrombin, mature alpha-thrombin (F2, Homo sapiens, UniProt P00734)
Technique: aptamer microarray, sandwich
Molecule type: DNA with 2'F-ANA
Sample: in vitro
Tested at: 200 nM
Setting: whole 15-mer aptamer, many near background
Added: Cy3 exosite-II aptamer, 400 nM
Reading: higher = stronger binding
Oligonucleotide: GGTTGGTGTGGTTGG
Modification	mean fluorescence intensity [a.u.]
2'F-ANA at 2 4 5 13 14 15	48
2'F-ANA at 2 3 4 9 11 12 13 14	266
2'F-ANA at 1 2 3 4 6 10 12 13 14 15	53.5
2'F-ANA at 2 3 4 6 7 9 11 12 13 15	424
2'F-ANA at 1 4 5 7 12 13	128
2'F-ANA at 1 3 8 10 12 14	59.8
2'F-ANA at 1 2 6 7 8 10 12	127
2'F-ANA at 2 3 6 9 11 12	876
2'F-ANA at 1 2 3 5 8 9 10 11 12 14	50.2
2'F-ANA at 2 4 6 11 12 13 14	88.5
2'F-ANA at 5 9 10 14 15	43.8
2'F-ANA at 1 2 3 8 9 13 14 15	120
2'F-ANA at 1 2 3 4 5 6 7 9 10 11 12 13	52
2'F-ANA at 4 6 10 11 14 15	56.3
2'F-ANA at 2 4 5 7 8 9 11	93.9
2'F-ANA at 1 3 4 6 7 9 10 12 15	96.2
2'F-ANA at 3 6 7 15	1010
2'F-ANA at 1 5 12 13 15	79.4
2'F-ANA at 1 2 3 4 8 9 10 11 12 13 14	56.6
2'F-ANA at 3 4 5 7 8 9 10 13 14 15	47.2
2'F-ANA at 3 4 8 13 14	381
2'F-ANA at 4 12 15	702
2'F-ANA at 1 4 5 6 7 9 10 12 13 14	49.4
2'F-ANA at 2 3 7 10 11 12 13 14	296
2'F-ANA at 2 11 12 14	192

Repeated from above (study 4):
Modification	mean fluorescence intensity [a.u.]
2'F-ANA at 1 2 3 4 6 10 12 13 14 15	53.5
2'F-ANA at 1 4 5 6 7 9 10 12 13 14	49.4
2'F-ANA at 2 3 4 6 7 9 11 12 13 15	424
2'F-ANA at 2 4 5 13 14 15	48
2'F-ANA at 1 2 3 4 8 9 10 11 12 13 14	56.6
2'F-ANA at 2 11 12 14	192
2'F-ANA at 1 3 8 10 12 14	59.8
